Assay results gathered from unrelated publications.
Compare with care: the assays were run in different laboratories. Numbers after ± are the reported error.
Proteasome component C5/PSMB5: Proteasome component C5/PSMB5 (Homo sapiens, UniProt P20618+P28074)
UniProt P20618, sequence (whole entry, looked up): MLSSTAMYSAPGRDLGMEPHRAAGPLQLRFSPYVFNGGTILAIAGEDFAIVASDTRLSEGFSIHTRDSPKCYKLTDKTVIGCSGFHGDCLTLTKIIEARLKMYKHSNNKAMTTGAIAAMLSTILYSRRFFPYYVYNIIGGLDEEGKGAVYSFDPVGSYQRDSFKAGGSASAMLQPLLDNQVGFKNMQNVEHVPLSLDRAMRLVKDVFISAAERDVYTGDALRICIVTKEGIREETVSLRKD
UniProt P28074, sequence (whole entry, looked up): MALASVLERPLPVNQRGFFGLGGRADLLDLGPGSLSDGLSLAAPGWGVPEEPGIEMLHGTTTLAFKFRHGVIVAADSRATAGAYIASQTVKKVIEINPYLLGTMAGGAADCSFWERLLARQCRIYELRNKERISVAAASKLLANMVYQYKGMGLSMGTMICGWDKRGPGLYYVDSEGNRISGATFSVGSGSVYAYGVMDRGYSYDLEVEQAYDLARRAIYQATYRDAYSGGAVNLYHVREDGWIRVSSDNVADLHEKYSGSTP
UniProt Q7Z2W7, sequence (whole entry, looked up): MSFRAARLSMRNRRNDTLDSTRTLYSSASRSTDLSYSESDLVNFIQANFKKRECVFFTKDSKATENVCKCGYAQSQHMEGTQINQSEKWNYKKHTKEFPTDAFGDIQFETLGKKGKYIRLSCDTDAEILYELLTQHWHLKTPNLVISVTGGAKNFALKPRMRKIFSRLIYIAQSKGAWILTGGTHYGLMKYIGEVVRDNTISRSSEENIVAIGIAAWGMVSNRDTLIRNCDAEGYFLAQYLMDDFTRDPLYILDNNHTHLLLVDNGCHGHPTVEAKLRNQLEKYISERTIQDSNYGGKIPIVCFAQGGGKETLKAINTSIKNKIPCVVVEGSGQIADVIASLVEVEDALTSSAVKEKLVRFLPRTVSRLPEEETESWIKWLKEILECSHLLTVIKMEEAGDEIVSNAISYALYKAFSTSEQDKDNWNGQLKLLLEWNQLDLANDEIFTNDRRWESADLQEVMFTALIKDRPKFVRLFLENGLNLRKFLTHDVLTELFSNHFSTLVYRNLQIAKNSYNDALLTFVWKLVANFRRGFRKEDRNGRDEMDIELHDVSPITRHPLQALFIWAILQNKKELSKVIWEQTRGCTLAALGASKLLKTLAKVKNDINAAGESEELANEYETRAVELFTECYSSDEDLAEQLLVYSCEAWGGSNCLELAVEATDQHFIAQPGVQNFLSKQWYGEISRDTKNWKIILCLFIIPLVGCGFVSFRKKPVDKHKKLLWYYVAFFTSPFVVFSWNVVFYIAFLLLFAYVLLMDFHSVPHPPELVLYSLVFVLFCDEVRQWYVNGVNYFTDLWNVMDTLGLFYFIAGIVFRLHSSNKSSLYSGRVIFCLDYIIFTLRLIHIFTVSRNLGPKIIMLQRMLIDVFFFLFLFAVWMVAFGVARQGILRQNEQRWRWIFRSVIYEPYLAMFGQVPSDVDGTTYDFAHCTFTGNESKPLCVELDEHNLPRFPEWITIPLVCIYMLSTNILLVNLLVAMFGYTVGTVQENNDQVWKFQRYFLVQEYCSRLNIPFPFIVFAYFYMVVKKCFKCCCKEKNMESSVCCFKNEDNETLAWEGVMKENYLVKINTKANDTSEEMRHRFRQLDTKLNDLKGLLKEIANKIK
UniProt Q96RJ0, sequence (whole entry, looked up): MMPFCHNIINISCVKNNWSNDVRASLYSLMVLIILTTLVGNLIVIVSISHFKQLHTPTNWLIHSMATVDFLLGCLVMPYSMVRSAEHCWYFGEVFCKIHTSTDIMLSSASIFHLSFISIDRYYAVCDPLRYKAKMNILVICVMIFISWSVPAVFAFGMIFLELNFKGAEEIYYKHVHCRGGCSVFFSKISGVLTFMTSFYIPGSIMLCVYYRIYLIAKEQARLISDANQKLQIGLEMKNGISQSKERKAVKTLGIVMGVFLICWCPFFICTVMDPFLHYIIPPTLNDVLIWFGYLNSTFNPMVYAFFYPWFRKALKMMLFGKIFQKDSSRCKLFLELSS
UniProt Q13526, sequence (whole entry, looked up): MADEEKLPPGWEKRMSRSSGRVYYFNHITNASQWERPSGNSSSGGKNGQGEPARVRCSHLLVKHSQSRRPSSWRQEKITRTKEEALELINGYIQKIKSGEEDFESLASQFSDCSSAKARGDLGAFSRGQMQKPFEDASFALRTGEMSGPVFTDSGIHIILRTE
UniProt Q09470, sequence (whole entry, looked up): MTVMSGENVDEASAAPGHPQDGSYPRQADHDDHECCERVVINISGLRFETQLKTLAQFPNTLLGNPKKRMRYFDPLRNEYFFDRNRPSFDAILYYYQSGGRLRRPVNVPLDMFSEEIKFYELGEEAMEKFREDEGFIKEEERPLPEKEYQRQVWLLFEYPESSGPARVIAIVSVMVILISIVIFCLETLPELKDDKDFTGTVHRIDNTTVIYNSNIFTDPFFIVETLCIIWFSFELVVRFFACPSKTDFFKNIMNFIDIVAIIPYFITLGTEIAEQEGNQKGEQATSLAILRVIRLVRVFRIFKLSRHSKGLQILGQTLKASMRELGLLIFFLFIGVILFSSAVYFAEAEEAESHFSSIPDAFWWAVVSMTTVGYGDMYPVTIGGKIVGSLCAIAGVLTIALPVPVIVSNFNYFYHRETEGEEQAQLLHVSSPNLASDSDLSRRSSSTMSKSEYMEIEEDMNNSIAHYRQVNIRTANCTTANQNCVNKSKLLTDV
UniProt Q00194, sequence (whole entry, looked up): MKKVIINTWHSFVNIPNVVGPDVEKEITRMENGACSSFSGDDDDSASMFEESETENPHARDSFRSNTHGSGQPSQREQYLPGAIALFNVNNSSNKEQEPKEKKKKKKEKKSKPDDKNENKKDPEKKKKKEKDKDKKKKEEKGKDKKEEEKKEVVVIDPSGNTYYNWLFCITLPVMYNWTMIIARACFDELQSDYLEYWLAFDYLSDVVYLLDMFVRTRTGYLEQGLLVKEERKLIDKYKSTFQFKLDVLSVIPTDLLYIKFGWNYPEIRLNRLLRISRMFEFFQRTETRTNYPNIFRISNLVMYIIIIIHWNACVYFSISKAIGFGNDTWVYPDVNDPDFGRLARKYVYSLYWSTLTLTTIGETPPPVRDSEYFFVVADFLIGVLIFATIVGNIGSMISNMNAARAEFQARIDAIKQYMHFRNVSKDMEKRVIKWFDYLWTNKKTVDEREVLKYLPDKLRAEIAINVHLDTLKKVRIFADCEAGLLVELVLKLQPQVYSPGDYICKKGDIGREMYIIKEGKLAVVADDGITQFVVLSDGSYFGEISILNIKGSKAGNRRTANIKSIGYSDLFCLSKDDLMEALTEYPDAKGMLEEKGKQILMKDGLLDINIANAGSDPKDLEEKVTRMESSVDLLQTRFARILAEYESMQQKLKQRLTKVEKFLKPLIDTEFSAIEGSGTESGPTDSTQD
UniProt Q9UH17, sequence (whole entry, looked up): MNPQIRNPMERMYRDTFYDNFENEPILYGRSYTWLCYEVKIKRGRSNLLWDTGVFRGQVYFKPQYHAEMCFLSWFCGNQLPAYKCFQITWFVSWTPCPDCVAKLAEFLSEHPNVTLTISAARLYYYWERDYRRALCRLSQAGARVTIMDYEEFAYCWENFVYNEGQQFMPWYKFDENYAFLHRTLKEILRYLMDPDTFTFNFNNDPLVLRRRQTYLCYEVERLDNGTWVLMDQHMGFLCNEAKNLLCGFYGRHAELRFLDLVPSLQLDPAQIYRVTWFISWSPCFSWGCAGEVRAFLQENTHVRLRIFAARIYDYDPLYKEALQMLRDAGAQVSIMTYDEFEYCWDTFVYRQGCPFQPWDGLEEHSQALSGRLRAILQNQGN
UniProt P16389, sequence (whole entry, looked up): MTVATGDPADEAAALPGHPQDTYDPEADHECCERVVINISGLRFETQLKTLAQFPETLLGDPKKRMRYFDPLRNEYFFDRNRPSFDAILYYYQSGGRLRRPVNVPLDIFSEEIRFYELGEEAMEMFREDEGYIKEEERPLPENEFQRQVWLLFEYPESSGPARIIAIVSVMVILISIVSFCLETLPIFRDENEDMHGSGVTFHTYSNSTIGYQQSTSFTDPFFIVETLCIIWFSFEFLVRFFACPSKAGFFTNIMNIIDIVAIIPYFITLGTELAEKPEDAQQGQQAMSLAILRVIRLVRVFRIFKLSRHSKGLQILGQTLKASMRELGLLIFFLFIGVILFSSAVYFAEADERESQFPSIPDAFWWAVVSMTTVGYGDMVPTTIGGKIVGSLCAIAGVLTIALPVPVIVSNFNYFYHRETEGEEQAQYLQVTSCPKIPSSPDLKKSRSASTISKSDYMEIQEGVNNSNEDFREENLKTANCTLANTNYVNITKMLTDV
UniProt Q96HE7, sequence (whole entry, looked up): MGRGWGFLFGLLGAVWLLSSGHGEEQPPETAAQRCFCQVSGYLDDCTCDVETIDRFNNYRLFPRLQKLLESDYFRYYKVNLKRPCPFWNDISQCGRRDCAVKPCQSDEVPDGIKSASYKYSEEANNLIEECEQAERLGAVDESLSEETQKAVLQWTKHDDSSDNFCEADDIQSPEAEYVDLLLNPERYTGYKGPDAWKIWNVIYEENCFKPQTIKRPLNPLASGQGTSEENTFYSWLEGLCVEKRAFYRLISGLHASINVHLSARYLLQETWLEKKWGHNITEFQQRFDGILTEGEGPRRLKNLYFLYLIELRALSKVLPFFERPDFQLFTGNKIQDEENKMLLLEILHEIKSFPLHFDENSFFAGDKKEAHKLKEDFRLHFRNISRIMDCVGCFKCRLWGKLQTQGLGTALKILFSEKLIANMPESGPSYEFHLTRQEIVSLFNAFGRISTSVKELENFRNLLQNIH

The IC50 of `CN[C@H](CC(C)C)C(=O)N[C@H]1C(=O)N[C@@H](CC(N)=O)C(=O)N[C@H]2C(=O)N[C@H]3C(=O)N[C@H](C(=O)N[C@H](C(=O)O)c4cc(O)cc(O)c4-c4cc3ccc4O)[C@H](O)c3ccc(c(Cl)c3)Oc3cc2cc(c3O[C@@H]2O[C@H](CO)[C@@H](O)[C@H](O)[C@H]2O[C@H]2C[C@](C)(NCc3ccc(C(=O)OCCCCCCN(Cc4ccccn4)Cc4ccccn4)cc3)[C@H](O)[C@H](C)O2)Oc2ccc(cc2Cl)[C@H]1O` is reported as 200 to 5000 nM (class B1 metallo-beta-lactamases; enzyme activity, inhibitor; mean over enzymes and).
For `CN(CC(=O)c1ccc2[nH]c(=O)[nH]c2c1)Cc1ccco1`, the IC50 was 120000 nM (DNA dC->dU-editing enzyme APOBEC-3B (Homo sapiens, UniProt Q9UH17); enzyme activity, inhibitor; pH 6).
For `O=C(OC(C(F)(F)F)C(F)(F)F)N1CCC(CCn2ccc3cnccc32)CC1`, the IC50 was greater than 10000 nM (Fatty-acid amide hydrolase 1 (Faah, Rattus norvegicus, UniProt P97612); enzyme activity, inhibitor).
The IC50 of `O=C(N[C@@H](Cc1ccccc1)C(=O)N[C@@H](C[C@H]1CCNC1=O)C(=O)C(=O)NC1CC1)OCc1ccccc1` is reported as 85 ± 20 nM (Genome polyprotein, 3C protease (rhinovirus B14, UniProt P03303); 3C protease activity, inhibitor, FRET).
The IC50 of `O=C(CSc1nnc(N2CCOCC2)n1-c1ccccc1)NCc1cccc(NC(=O)C2CC2)c1` is reported as 710 nM (KCNA2/KCNA1 (Homo sapiens, UniProt P16389+Q09470); potassium current, inhibitor, automated patch clamp; CHO-K1, concatemer expressing).
The IC50 of `Cn1nnnc1Sc1c2c(c(C#N)c3nc4ccccc4n13)CCCC2` is reported as 5200 nM (ERO1-like protein alpha (Homo sapiens, UniProt Q96HE7); enzyme activity, inhibitor, fluorescence).
For `Cc1ccc(CNC(=O)[C@H](CCc2ccccc2)NC(=O)[C@H](CC(=O)NCC(C)(C)C)NC(=O)CCc2cccc(F)c2)cc1`, the IC50 was 4.6 nM (Proteasome component C5/PSMB5; inhibitor).
For `CCCC/N=C/C=C(C)/C=C/C=C(C)/C=C/C1=C(C)CCCC1(C)C`, the IC50 was roughly 80 nM (Cyclic nucleotide-gated channel alpha-1 (CNGA1, Bos taurus, UniProt Q00194); cGMP-activated current, inhibitor, inside-out patch clamp; Xenopus oocytes; 1 h steady state, +100 mV, together with: 2 mM cGMP).
`C[C@H](OP(=O)(O)O)[C@H]1NC(=O)[C@@H](CCCNC(=N)N)NC(=O)[C@H](CCCNC(=N)N)NC(=O)[C@@H](CCCNC(=N)N)NC(=O)[C@H](CCCNC(=N)N)NC(=O)[C@H](Cc2ccc3ccccc3c2)NC(=O)[C@@H]2CCCCN2C1=O` gave an IC50 of greater than 10000 nM (Peptidyl-prolyl cis-trans isomerase NIMA-interacting 1 (PIN1, Homo sapiens, UniProt Q13526); fluorescence anisotropy competition; together with: FITC-labelled probe).
With `Cc1ccc(N(O)/N=N/c2ccc(S(=O)(=O)Nc3nccs3)cc2)cc1` the IC50 was 314 µg/mL (α-glucosidase (rat intestine); enzyme activity, inhibitor; together with: PNPG substrate).
`CC(=O)C12NC(C)(C)CC1(C)C(=O)C1=C2c2c(c3c4n2C(C)(C)CC2=C4C4(CC(C)(C)NC(C)(C4)C2=O)CC3(C)C)C(=O)C(C)(C)N1` (single isomer, unassigned; (+)) has an IC50 of 1100 nM (Transient receptor potential cation channel subfamily M member 8 (TRPM8, Homo sapiens, UniProt Q7Z2W7); ion current, inhibitor, patch clamp).
The growth percent of `COc1cc(CNC(=O)C[C@H](C)CCC=C(C)C)ccc1OCc1cn(-c2ccc(C#N)cc2)nn1` is reported as 30.2% (MDA-MB-468 breast cancer cells; SRB; 10 µM, 48 h).
For `Cc1ccc(CNC(=O)[C@H](CCc2ccccc2)NC(=O)[C@@H](N)CCc2ccccc2)cc1`, the IC50 was 489 nM (Proteasome component C5/PSMB5; β5 activity, inhibitor; together with: Suc-LLVY-AMC, PA28α-activated).
`COc1ccccc1OC1=C(Oc2ccccc2OC)C(=O)c2ccccc2C1=O` has an IC50 of 1290 nM (Bromodomain-containing protein 4, BD1 (BRD4, Homo sapiens, UniProt O60885); BD1 acetylated histone peptide binding, inhibitor, AlphaScreen).
`COc1cc(CNC(=O)C[C@H](C)CCC=C(C)C)ccc1OCc1cn(-c2ccccc2Cl)nn1` gave a growth percent of 53.8% (HCT-15; SRB; 10 µM, 48 h).
For `COc1ccc(NC(=O)CSc2nc(-c3ccc(Cl)cc3)cc(C(F)(F)F)c2C#N)cc1`, the IC50 was greater than 10000 nM (Trace amine-associated receptor 1 (TAAR1, Homo sapiens, UniProt Q96RJ0)).

A few entries again:
`C[C@H](OP(=O)(O)O)[C@H]1NC(=O)[C@@H](CCCNC(=N)N)NC(=O)[C@H](CCCNC(=N)N)NC(=O)[C@@H](CCCNC(=N)N)NC(=O)[C@H](CCCNC(=N)N)NC(=O)[C@H](Cc2ccc3ccccc3c2)NC(=O)[C@@H]2CCCCN2C1=O` gave an IC50 of greater than 10000 nM (Peptidyl-prolyl cis-trans isomerase NIMA-interacting 1 (PIN1, Homo sapiens, UniProt Q13526); fluorescence anisotropy competition; together with: FITC-labelled probe).
With `Cc1ccc(N(O)/N=N/c2ccc(S(=O)(=O)Nc3nccs3)cc2)cc1` the IC50 was 314 µg/mL (α-glucosidase (rat intestine); enzyme activity, inhibitor; together with: PNPG substrate).
